# Measurements from different studies.
# Numbered parts are unrelated; each lists some results of a single study. Positions count from the first letter of the parent shown.

# Sample 1 — method: RNAcompete; form: RNA; medium: in vitro; tested at: 20 nM; setting: 7-mer, probes averaged, single round; baseline: mean of 7-mers; reading: higher = stronger binding
# Target: PABPC1L2, full length, GST fusion (mouse, UniProt A0ABA7IW68)
# Target sequence (chain): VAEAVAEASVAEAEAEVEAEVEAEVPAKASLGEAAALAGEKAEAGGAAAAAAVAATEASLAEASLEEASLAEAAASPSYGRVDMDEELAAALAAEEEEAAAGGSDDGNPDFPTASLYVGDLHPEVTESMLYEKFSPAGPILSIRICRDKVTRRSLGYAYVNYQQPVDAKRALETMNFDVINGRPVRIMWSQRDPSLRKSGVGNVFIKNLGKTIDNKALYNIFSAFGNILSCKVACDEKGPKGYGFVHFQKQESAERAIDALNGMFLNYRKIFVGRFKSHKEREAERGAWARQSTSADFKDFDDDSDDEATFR
Strand,7-mer Z-score
AUCUCGA,-0.168
GGCUCAC,-0.11
CUUCUAA,-0.188
GCCCUUA,-0.354
AACCCAC,-0.144
GGCAAGA,0.564
CCUGUAC,-0.376
AUAAUUG,0.037
ACGUUGU,-0.3
ACCGAGA,0.0678
CCUCACC,-0.347
CAUGGCU,-0.213
ACAGCCA,0.148

# Sample 2 — target: JDP2, bZIP domain (human); method: DHFR protein complementation; medium: yeast; baseline: wild-type JUN-FOS pair; reading: higher = stronger binding
# Setting: single substitutions, most at no-binding floor
# Parent: JUN, bZIP domain (human); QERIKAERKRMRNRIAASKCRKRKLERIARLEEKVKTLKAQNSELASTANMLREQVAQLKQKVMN; partner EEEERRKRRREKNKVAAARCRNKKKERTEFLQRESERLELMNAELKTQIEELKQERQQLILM
Change,binding fitness
V35W,0.28 natural log
L38S,-0.0314 natural log
E33S,0.216 natural log
A40D,0.335 natural log
R53F,0.122 natural log
I28D,0.251 natural log
L45W,0.177 natural log
T48A,0.276 natural log
Q55P,-0.9 natural log
S43N,0.306 natural log

# Sample 3 — target: CCNA1, cyclin fold, Cln2 fusion (human); method: yeast growth competition, sequencing; medium: yeast; setting: weak parent motif; baseline: not given; reading: higher = stronger binding
# Parent: BRCA2 docking peptide (human); PSIKRNLLNEFDR; partner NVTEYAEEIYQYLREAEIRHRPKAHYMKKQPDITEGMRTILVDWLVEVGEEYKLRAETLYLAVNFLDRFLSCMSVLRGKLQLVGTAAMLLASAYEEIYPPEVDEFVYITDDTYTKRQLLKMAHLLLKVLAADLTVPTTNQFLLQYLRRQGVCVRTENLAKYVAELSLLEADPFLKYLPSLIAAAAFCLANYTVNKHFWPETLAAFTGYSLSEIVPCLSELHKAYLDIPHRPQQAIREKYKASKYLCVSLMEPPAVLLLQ
Change,normalised enrichment score
I3G,0.527
N6C,0.187
K4D,0.235
R13C,0.273
L8W,0.144
R5A,0.522
R13Q,0.539
S2E,0.473
F11V,0.378
P1T,0.34
K4I,-0.0469
S2A,0.419
E10Y,0.618
F11Y,0.503

# Sample 4 — method: RNA Bind-n-Seq; form: RNA; medium: in vitro; tested at: 200 nM; setting: whole 134-nt RNA, ends assumed; added: 150 mM KCl; baseline: input library; reading: higher = stronger binding
# Target: Ras GTPase-activating protein-binding protein 1, full length (G3BP1, Homo sapiens, UniProt Q13283)
# Sequence of UniProt Q13283 (whole entry, looked up): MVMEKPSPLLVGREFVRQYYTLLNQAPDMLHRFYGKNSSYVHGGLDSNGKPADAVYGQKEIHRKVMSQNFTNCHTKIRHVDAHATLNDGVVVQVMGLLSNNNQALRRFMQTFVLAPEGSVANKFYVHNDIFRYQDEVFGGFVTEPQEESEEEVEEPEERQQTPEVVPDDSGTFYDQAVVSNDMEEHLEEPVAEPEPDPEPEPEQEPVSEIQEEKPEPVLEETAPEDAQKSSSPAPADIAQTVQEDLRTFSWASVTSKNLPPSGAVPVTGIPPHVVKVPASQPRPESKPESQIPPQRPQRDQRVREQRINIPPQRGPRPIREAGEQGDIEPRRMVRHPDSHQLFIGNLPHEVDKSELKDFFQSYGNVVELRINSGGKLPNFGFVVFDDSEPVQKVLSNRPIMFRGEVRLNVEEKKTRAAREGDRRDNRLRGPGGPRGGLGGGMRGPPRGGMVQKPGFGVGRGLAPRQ
# All sequences stand within: GGGAGUUCUACAGUCCGACGAUC … UGGAAUUCUCGGGUGUCAAGG
Strand,log2 enrichment
UCAAGUCCUGUGCUACACAUCGUAUGUACCGAAUCGGGUUUUUGGGAGGGUGGGAAAGUAUUAUGUUACGCCGUUCGGAUCUGCACUUCC,0.595
GUCCUGUGCUACACAUCGUAUGUACCGAAUCGGUUUUUGGGUUUUUGGGGUUUUUGGGGAAAGUAUUAUGUUACGCCGUUCGGAUCUGCA,-0.534
GUCCUGUGCUACACAUCGUAUGUACCGAAUCGGUUUUUUGGUUUUUUGGUUUUUUGGGGAAAGUAUUAUGUUACGCCGUUCGGAUCUGCA,-1.1
UCCUGUGCUACACAUCGUAUGUACCGAAUCGGGGAAAAAGGAAAAAGGGGAAAAAGGGGAAAGUAUUAUGUUACGCCGUUCGGAUCUGCA,0.019
CUGUGCUACACAUCGUAUGUACCGAAUCGGCCCCCCCGGCCCCCCCGGGGCCCCCCCGGGGAAAGUAUUAUGUUACGCCGUUCGGAUCUG,-0.671
UAACUUUAGAGGAGGAUCUGAUGGAUAUGACAGUGGACGUGGAUUUGGGGAUGGCUAUAAUGGGUAUGGAGGAGGACCUGGAGGUGGCAA,0.479
AAGUCCUGUGCUACACAUCGUAUGUACCGAAUCGGAAAAAGGUUUGGUUUUUUUGGAAAGUAUUAUGUUACGCCGUUCGGAUCUGCACUU,-1.25
GCAGGAAGUAAAAACAAAUGGAAAUGCUUCGGAUAGUGGUAGGGGUGGGGGUUGCUAAGGAAAGGGUGGGAUGGGAGUGGGUAAAGAGUU,0.892
ACCAUGCAGGUGGGCAUCUUUGGGAAGUGGGGCAAGGGGGGGAUAGGGAGGGGGGUAACACUUUGGGAAAAAGUGGUCCCAGGUCGUUUC,1.3
GCAGGAAGUAAAAACAAAUGGCAAUGCUUCGGAUAGUGGCAGGGGUGGGGGUUGCUAAGGAAAGGGUGGGAUGGGAGUGGGUAAAGAGUU,1.05

# Sample 5 — method: DHFR PCA, deep sequencing; medium: yeast; added: (+)-ABA 0.11 µM; baseline: wild-type fitted maximum; reading: higher = stronger binding
# Target: ABI1, truncated, D143A, DHFR fusion (Arabidopsis thaliana)
# Setting: methotrexate growth selection, single substitutions
# Parent: PYL1, truncated, DHFR fusion (Arabidopsis thaliana); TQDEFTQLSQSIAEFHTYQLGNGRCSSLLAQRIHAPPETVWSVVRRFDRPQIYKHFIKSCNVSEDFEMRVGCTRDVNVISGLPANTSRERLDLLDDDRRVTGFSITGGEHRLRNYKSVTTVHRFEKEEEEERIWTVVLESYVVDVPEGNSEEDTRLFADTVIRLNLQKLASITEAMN; partner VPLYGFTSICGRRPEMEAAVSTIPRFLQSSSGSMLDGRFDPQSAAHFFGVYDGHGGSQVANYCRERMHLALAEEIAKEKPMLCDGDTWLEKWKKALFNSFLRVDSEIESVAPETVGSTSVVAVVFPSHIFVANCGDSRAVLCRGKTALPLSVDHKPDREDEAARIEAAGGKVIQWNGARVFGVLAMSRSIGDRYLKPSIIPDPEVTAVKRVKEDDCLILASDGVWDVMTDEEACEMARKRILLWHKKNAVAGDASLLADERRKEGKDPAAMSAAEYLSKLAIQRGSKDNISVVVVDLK
Change,relative binding score
A30Y,16.3%
W41F,-2.64%
S80H,31%
K58M,-5.67%
M68F,6.47%
S59I,3.23%
T173G,-1.25%
F124S,4.81%
V137P,-4.24%
V44C,1.85%
S140K,-11.4%
A13S,31.1%
A13P,-0.459%
Q51F,3.89%
I162E,4.59%
D144Q,-0.304%

# Sample 6 — method: universal PBM; form: double-stranded DNA, one strand shown; medium: in vitro; tested at: not given; reading: higher = stronger binding
# Target: Sal-like protein 4, full length isoform B (SALL4, Homo sapiens, UniProt Q9UJQ4-2, residues 1-616)
# Setting: 8-mer, flanks averaged, mean of replicates
Strand,E-score
AAAAAAAC,0.253
ACTACATA,0.286
CTATTGGA,0.165
ACGTCTCC,-0.0362
AACTATCG,0.0195
ATCCAGTG,-0.0239
CGGTGATC,-0.302
GCACAACA,0.132
AGCGCCCC,-0.411
CGTTATAG,0.221
AGTGGCGC,-0.104
ATGTACGC,0.0767
ACGGGAAA,-0.115
AGCTATAC,0.138
CCACGTAC,-0.0693
ACGGGGCG,-0.199
CCTCGAGC,-0.194
CATTGCCA,0.0533
ACGCTGAT,-0.00137

# Sample 7 — method: RNA Bind-n-Seq; form: RNA; medium: in vitro; tested at: 365 nM; baseline: no-protein control; reading: higher = stronger binding
# Target: RNA binding protein fox-1 homolog 2, RRM domain, GST-SBP tag (RBFOX2, Homo sapiens, UniProt O43251-10, residues 100-194)
# Setting: natural RNA segment, single round, ends assumed
# All sequences stand within: GGGAGUUCUACAGUCCGACGAUC … UGGAAUUCUCGGGUGCCAA
# Target sequence (chain): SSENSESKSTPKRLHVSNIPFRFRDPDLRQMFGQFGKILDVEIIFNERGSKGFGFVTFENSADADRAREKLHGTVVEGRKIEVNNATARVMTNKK
Strand,RBNS enrichment (R)
AUAGAGAACCCGGGCUUGAGUGAGAAGAGCUUGCACAGCCAGUGAGACACAUUGCCUUCUGCAGCUGGGAGACAGAGGAAGGAUUCCCUUUCUUCACCAAGUGCAAUAGA,0.393
CUCCUCUUUUACUAACUCCACCCUUUCUCAUCUCUGGGACCCAGCAGGGACCUGGAGAGGCCAACAGCCACUGCUACCUUUGUAGUCUUCAAAAUAUUGAACUGCAGGUC,0.423
GAGUUGGAGAGAGGUGGGUCCUAUUGUAACAACCGCUAUAAUUUAUAUGGACUAUAUUGUCUCCCUGUCCUUGUUCUGAUAAUGUACAGACUCAGUUUUUCUUAUGUUAU,0.641
UGAUAUUGCCAUGCAUGGUCAUUCAUACUUCUAAUACCAGCACCUAUAAGGCUGAGGCAGAAGGUUCCAGAAUUCAAGGACACUCAGGCCUACAUAUAUAGCAAGACUGU,0.508
CCUGUCACAGCGGCUGCAAACAGUGGCAUCCUUGAGCAGCAAGAUGGGCGCCUGGGUGUGGUCUUGUUAAAUCGGUGUCGCACAUUUUAAUCGGUAAUCUGCUGGCUUGU,0.876
GGUACAGAAUAAUUCUUCGUUGUGUGGCACUAACCCACACACUGCAGGACAUCGUUCUCCCUGGCUGCAUCCACUCAGUGCUGGGAGUAGUCCCCAGUUAUUAUGAAACC,0.414
ACUGACGUUUAUGCCUGGUGAUAGCAUGUCCCGAGAAGCAUGGACAUGGAGUUUUGUUUUAAUAAACAGAAAAAAAAAACCCGACUGAUUUUUAAUGUCUUGGAUUUGGU,7.3
UGCACCAGAGCAUCUCAGCAGGCAGGCAUUUUGUGGCAUUUAUGGCCUGUCACUCCCUGUAUUUCUCCCUCCAUCCAGAGCUCGCUCCACACUCCUGCUCACCCAGCAAG,0.866
ACUUGAAUUUUUAGGUCAGCCCAGGGGAGAAAGCUAACUGCUGAGCUCCUCCUGUGCCCCAAUCUUUCCCAGUCCUUUCCCCUCAGAUGGAGACUUCAUUAUGUUAAUGA,0.252
GAGAACUUUCUGGACGUCGAUGUUAUCUCAAAGGAAAGCUAUGCAUUGCUGCUUCUUUGUUACCUUGCUUAUGCUUUGCUUUAAUUAGGCCUCUCUCUCUCCCUCUCUCU,0.43
AUUUAUGUAACAAUUCCUUAAAGCCAUUCAAAUGGCUAACUAUUUAAUUUCUUUAGGACAGUUGUAAAGGUCUCUCUCCUGAGGACAAUGACUUGGAAGAACUGGGGCAC,2.73
AGUAUGUUUGAUUUUUAUCCACAAGAAUGAAUCUGAUUCAGAAUGCUUUUCAGCUGACAUACAGAGCACUAAAUACUUUACGGCAAAUCCAUAGGUCUGAAUCUCUUAAG,0.569

# Some of these lines once more (sample 5):
Change,relative binding score
A30Y,16.3%
W41F,-2.64%
S80H,31%
K58M,-5.67%
M68F,6.47%
S59I,3.23%
T173G,-1.25%
F124S,4.81%
V137P,-4.24%
V44C,1.85%
